# Experimental data pooled from the literature.
# Protocols differ between the studies behind these lines. ± marks the error that the study gave.
SMILES,cell line,test,setting,how to read,endpoint,result
COc1cc(CNC(=O)C[C@H](C)CCC=C(C)C)ccc1OCc1cn(-c2ccc(F)cc2)nn1,IGROV-1 ovarian cancer cells,SRB,"10 µM, 48 h",,growth percent,97.4%
CC(=O)OC[C@H]1O[C@@H](Sc2sc(C(=O)c3ccc(C)cc3)c(N)c2-c2nc3ccccc3s2)[C@H](OC(C)=O)[C@@H](OC(C)=O)[C@@H]1OC(C)=O,UACC-62,SRB,"10 µM, 48 h",relative to: untreated,growth,55.9%
Cc1nn(-c2ccc(S(=O)(=O)N[C@@H](CO)CC(C)C)cc2)c2nn3nnnc3nc12,PC-3,"DNA damage, alkaline comet","2 µM, 24 h",,tail DNA,56.5 ± 6.65%
CN(C)c1cc2ccccc2c(N)n1,LX-2,western blot,"concentration not given, 6 h pre-treatment, together with: TGF-β1 5 ng/mL for 24 h",,collagen I protein level,inhibited
COc1cc(CNC(=O)C[C@H](C)CCC=C(C)C)ccc1OCc1cn(-c2ccc(Cl)cc2Cl)nn1,IGROV-1 ovarian cancer cells,SRB,"10 µM, 48 h",,growth percent,72.3%
O=C1OCC2=C1C(c1cccc(Br)c1)C1=C(N2)C(=O)c2ccccc2C1=O (stereo not drawn),SK-LU-1 cells,annexin V/PI,"0.16 µM, 24 h",,necrotic cells,2.84%
O=Cc1c(O)ccc2ccccc12,HUVEC,"RNA sequencing, measured: APLN","75 µM, 24 h",relative to: DMSO,log2 fold change,-2.82
COc1cc(CNC(=O)C[C@H](C)CCC=C(C)C)ccc1OCc1cn(-c2ccc(Br)cc2)nn1,A549/ATCC,SRB,"10 µM, 48 h",,growth,78.6%
O=C([O][Ti+2][O]C(=O)c1ccc([P+]([Au-][Cl])(c2ccccc2)c2ccccc2)cc1)c1ccc([P+]([Au-][Cl])(c2ccccc2)c2ccccc2)cc1.c1cc[cH-]c1.c1cc[cH-]c1,CAKI-1 cells,ELISA,"10 µM, 6 h",,IL-6 secretion,decreased
COc1ccc(CC2COC(=O)C2Cc2ccc3c(c2)OCO3)cc1OC (mixture of isomers),A2780cis,,"IC50, 72 h",,colony formation,~80%
COc1cc(CNC(=O)C[C@H](C)CCC=C(C)C)ccc1OCc1cn(-c2ccccc2)nn1,MOLT-4 leukaemia cells,SRB,"10 µM, 48 h",,growth percent,54.6%
CC/C=C\C/C=C\C/C=C\C/C=C\C/C=C\C/C=C\CCC(=O)Nc1ccn(C2OC(CO)C(O)C2(F)F)c(=O)n1 (stereo not drawn),SR,NCI60 screen,,,TGI,28.8 µM
COc1cc(CNC(=O)C[C@H](C)CCC=C(C)C)ccc1OCc1cn(-c2ccccc2F)nn1,MDA-MB-231/ATCC,SRB,"10 µM, 48 h",,growth,66.8%
COc1cc2c(cc1C)NC(=O)C2=Cc1c(Cl)[nH]c2c1ccc1ccccc12,ovarian cancer subpanel of NCI-60,,48 h,,TGI,7.24 µM
CCN1CCN(Cc2ccc(C(=O)Nc3ccc(C)c(NCc4cnc5[nH]ccc5c4OC)c3)cc2C(F)(F)F)CC1,"SNU-1040, overexpressing mutant",cell proliferation,48 h,,GI50,3.52 µM
CCCCc1ccc(C(=O)O[C@@H]2CC(=O)O[C@H](C)C/C=C/C=C/[C@H](O[C@H]3CC[C@H](N(C)C)[C@@H](C)O3)[C@H](C)C[C@H](CC=O)[C@H](O[C@@H]3O[C@H](C)[C@@H](O[C@H]4C[C@@](C)(O)[C@@H](O)[C@H](C)O4)[C@H](N(C)C)[C@H]3O)[C@H]2OC)cc1,GES-1 and HGC-27,"cell growth, CCK-8",72 h,relative to: IC50 GES-1 over HGC-27,selectivity index,5.09
O=C(Nc1ccc(C(F)(F)F)cc1Cl)c1cc(Cl)ccc1O,PC-3 (AR-negative),,"concentration not given, 3 days, dose-dependent",,cell growth,decreased
COc1cc(CNC(=O)C[C@H](C)CCC=C(C)C)ccc1OCc1cn(-c2cccc(Cl)c2)nn1,786-0,SRB,"10 µM, 48 h",,growth,92.3%
Cc1ccc(NC(=O)c2c(C)oc3ccc(O)c(CN4CCCCCC4)c23)cc1,L-363,annexin V/7-AAD flow cytometry,"10 µM, 72 h",,apoptotic cells,13%
COc1cc(CNC(=O)C[C@H](C)CCC=C(C)C)ccc1OCc1cn(-c2cccc(C(F)(F)F)c2)nn1,IGROV-1 ovarian cancer cells,SRB,"10 µM, 48 h",,growth percent,102%
CN[C@@H](C)C(=O)N[C@H]1CN(C(=O)Cc2ccccc2)CC[C@H]2CC[C@@H](C(=O)NCc3ccc(Br)cc3)N2C1=O,SK-OV-3,"caspase-8, caspase-3, PARP cleavage, western blot",24 h,,onset concentration,≥ 0.3 µM

# For quick reference, copied from above:
SMILES,cell line,test,setting,how to read,endpoint,result
COc1cc(CNC(=O)C[C@H](C)CCC=C(C)C)ccc1OCc1cn(-c2cccc(Cl)c2)nn1,786-0,SRB,"10 µM, 48 h",,growth,92.3%
